Assay results of several laboratories.
Protocols differ between the studies behind these lines. Several values in a cell are separate wells, animals, samples, runs or records. ± marks the error that the study gave.

For `COC(=O)N[C@H](C(=O)N[C@@H](Cc1ccccc1)[C@@H](O)CN(Cc1ccc(-c2ccccn2)cc1)NC(=O)[C@@H](NC(=O)OC)C(C)(C)C)C(C)(C)C`, “plateau flux concentration” read 190 µg/mL (modified PAMPA Franz cell; phosphate buffer with HPMCAS; 3 h, 1000 rpm, 460 nm particles, added: no BSA).
With `O=C(O)CSc1nnc(Br)n1-c1ccc(C2CC2)c2ccccc12` the body weight was 21.5 g and 28 g and 28.2 g and 26.7 g and 24.9 g and 25.3 g (KM mouse, chronic hyperuricaemia model; dose not given, day 2).
For `Cc1nc2cccc(OCC(C)(C)C(=O)NC(C)C)c2c(N)c1C(=O)O`, the Cmax ratio was 2.54 (male Sprague-Dawley rat, plasma; dietary, 30 mg/kg/day; relative to: day 90 over day 7).
`CC(=O)N(C)[C@H]1CCN(C(=O)c2cnc3c(c2)C[C@](C)(c2ccc(F)cc2)N3)C1` — result for “adverse event duration”: 1 days (item: Headache; human; oral, 30 mg once daily).
Under “participants with any AE of special interest”, `CN1C(=O)[C@@H](NC(=O)c2nnc(Cc3ccccc3)[nH]2)COc2cccnc21` is recorded as 0% (phase I single ascending dose; human, male and female; oral, 10 mg, fasted).
`Cc1cc(Nc2ncnc3ccc(NC4=NC(C)(CO)CO4)cc23)ccc1Oc1ccn2ncnc2c1` (centres unmarked): “AUC(0-t) (geometric mean)” 414 ng·h/mL (human, plasma; oral, 300 mg tucatinib single dose, day 1, tucatinib alone).
`N[C@@H](Cc1ccc(O)c(O)c1)C(=O)O` — result for “time to dyskinesia onset”: ≤ 30 min (actiwatch activity; MPTP-lesioned marmoset, dyskinetic; 20 mg/kg).
For `CC(C)(C)c1ccc(O)c(CN(Cc2cc(C(C)(C)C)ccc2O)C2CCC(NC(N)=O)CC2)c1` (centres unmarked), the recovery was 98.9 ± 2.76% (human liver microsomes; 5 ng/mL, 3 months, -20 °C, long-term storage).
`NCc1ccc(-c2nn(Cc3ccccc3)c3ccccc23)o1`: “volume of distribution at steady state” 4.01 L/kg (male CD1 mouse, plasma; intravenous, 5 mg/kg).
For `CC(=O)N[C@@H](CNC(=O)c1cc(NC(=O)c2cc(NC(=O)c3nc(NC(=O)c4nccn4C)cn3C)cn2C)cn1C)CC(=O)Nc1cc(C(=O)Nc2cc(C(=O)Nc3cc(C(=O)Nc4cc(C(=O)NCCCN(C)CCCNC(=O)c5cccc(C(=O)O)c5)n(C)c4)n(C)c3)n(C)c2)n(C)c1`, “aggregate hydrodynamic radius” read 100 ± 1 nm (dynamic light scattering; 0.1% DMSO in PBS; 4 µM, 10 min, 25 °C).
The Q/F of `CC[C@@H]1CN(C(=O)NCC(F)(F)F)C[C@@H]1c1cnc2cnc3[nH]ccc3n12` is reported as 3.39 L/h (population PK model; healthy, RA and CD subjects, plasma; oral, immediate-release formulation).
For `COc1cc(C=CC(=O)O)ccc1OS(=O)(=O)O`, CSF concentration read “not detected” (human CSF; concentration not given, mean).
For `N#Cc1ccc2c(c1)[C@H]1CCCN(C(=O)c3ccc4[nH]cnc4c3)[C@H]1C2`, “mean ACTH level” read 5.3 pmol/L (human; 360 mg, end of trial).
With `O=C1Cc2cc(CCN3CCN(c4nsc5ccccc45)CC3)c(Cl)cc2N1` the heart rate was 192 ± 0.8 beats/min (male Hartley guinea pigs, anaesthetized; intravenous, 1 mg/kg group, baseline before infusion).
`COc1cc(Nc2ncc3c(n2)-c2ccc(Cl)cc2C(c2c(F)cccc2OC)=NC3)ccc1C(=O)O` has an anaemia incidence of 67% (patients; oral, dose not given, grade 1, any attribution, added: pembrolizumab).
`COc1cc2nccc(Oc3ccc(NC(=O)c4cc5c(n(-c6ccccc6)c4=O)CCCC5=O)nc3)c2cc1OC`: “patients with decreased platelet” 14.3% (human, relapsed/refractory AML; oral, 10 mg once daily, grade ≥3, any causality).
For `CCN1/C(=C/C(C)=O)Sc2ccc(F)cc21`, “QTc interval (Bazett)” read 317 ± 14 ms (cynomolgus monkey; oral, 10 mg/kg, 24 h post-dose).
`CN(C(=O)n1cnc(-c2cccnc2)c1)[C@H]1CC[C@H](O)CC1` gave a concentration of 16.6 ± 1.3 ng/g (Wistar rat, midbrain; oral, 10 mg/kg/day of BIA 10-2474, 72 h, repeated 5 days).
`CCOc1c([C@H](C)n2nc(C)c3c(N)ncnc32)cc(Cl)c(F)c1[C@@H]1CNC(=O)C1`: “observations with PR ≤200 ms” 96% (ECG; previously treated B-cell malignancy patients; oral, 20 mg once daily, baseline below thresholds).
`C=CC(=O)NC1CCN(c2ncc3ncnc(Nc4ccc(Oc5ccc6c(c5)ncn6C)c(C)c4)c3n2)CC1` — result for “participants with AE grade ≥3”: 0% (healthy male humans; oral, 240 mg).
The Ktrans of `Cc1ccnc([18F])c1-c1cccc(N2C[C@H](N3CCN(C(=O)c4nccs4)CC3)CC2=O)c1` is reported as 0.0003 min⁻¹ (PET, two-tissue compartment model; rhesus monkey, brain striatum; intravenous, baseline, arterial input).
For `CCc1cc(C(=O)NC)c2nccc(N3CCc4c(cc(Cn5ccnc5)cc4-c4cn(C)nc4C(F)(F)F)C3=O)c2c1`, “serum MCH change” read 3.42% (Sprague Dawley rats; oral, 50 mg/kg once daily, 7 days; relative to: vehicle).
With `C[C@H](CS)C(=O)N1CCC[C@H]1C(=O)O` the heart rate was 227 ± 0.7 beats/min (male Hartley guinea pigs, anaesthetized; intravenous, 3 mg/kg group, baseline before infusion).
`C[C@@H](Oc1ccc(S(C)(=O)=O)cc1C(=O)N1C[C@@H]2C[C@]2(c2cc(C(F)(F)F)on2)C1)C(F)(F)F`: “incidence of Dizziness” 16.7% (human; oral, 25 mg).
`CCn1cc(C(=O)N2CCOCC2)c(=O)c2cc(NC3Cc4ccccc4C3)cnc21` has a Cmax of 1120 ng/mL (human, fed; oral suspension, 600 mg/day twice daily, day 1, arithmetic mean).
With `CCn1c(C(=O)N(C2CC2)C2CC2)cc2c3c(ncn3C)c(Nc3cc(C)n(C)n3)nc21` the plasma concentration was 396 ng/mL (cancer patients; oral, 200 mg single dose, day 1, 12.0 h).
Under CSF concentration, `COc1cc(C[C@@H](CO)[C@H](CO)Cc2ccc(O)c(OC)c2)ccc1O` is recorded as “not detected” (human CSF; concentration not given, mean).
For `OC[C@H]1O[C@@H](c2ccc(Cl)c(Cc3ccc(O[C@H]4CCOC4)cc3)c2)[C@H](O)[C@@H](O)[C@@H]1O`, “change in Triglycerides” read -0.42 mg/dL (Japanese type 1 diabetes patients, blood; 25 mg, day 28; relative to: baseline).
`C[C@@H](Nc1cc(F)cc(F)c1)c1cc(C(=O)N(C)C)cc2c(=O)cc(N3CCOCC3)oc12`: “treatment-related serious adverse events” 0% (item: drug-induced liver injury; patients with advanced solid tumours; oral, dose not given, dose expansion phase I).
Under “patients with TEAE”, `Cc1cc(C)c(CNC(=O)c2cc(Cl)c3c(c2C)O[C@@](C)([C@H]2CC[C@H](N(C)C)CC2)O3)c(=O)[nH]1` is recorded as 8.3% (item: Diarrhea; human patients; oral, 200 mg once daily, 1 day onset day 14).
For `Cc1cc(-c2nccc3c2ccn3CC(=O)Nc2ccc(-c3cnccn3)cn2)ccn1`, “respiratory thoracic mediastinal TEAEs” read 11.1% (healthy human volunteers; oral, 15 mg once daily, 14 days, multiple ascending dose).
With `CC(C(=O)NCC(=O)NCC(CNC(=O)CNC(=O)C(C)N1CCN(CC(=O)[O-])CCN(CC(=O)[O-])CCN(CC(=O)[O-])CC1)(CNC(=O)CNC(=O)C(C)N1CCN(CC(=O)[O-])CCN(CC(=O)[O-])CCN(CC(=O)[O-])CC1)CNC(=O)CNC(=O)C(C)N1CCN(CC(=O)[O-])CCN(CC(=O)[O-])CCN(CC(=O)[O-])CC1)N1CCN(CC(=O)[O-])CCN(CC(=O)[O-])CCN(CC(=O)[O-])CC1.[Gd+3].[Gd+3].[Gd+3].[Gd+3]` (centres unmarked) the urinary excretion was 0.01% (ICP-MS; cynomolgus monkey; dose not given, 57 58 d, PK group; relative to: dose).
`CCC(C)n1ncn(-c2ccc(N3CCN(c4ccc(OCC5COC(Cn6cncn6)(c6ccc(Cl)cc6Cl)O5)cc4)CC3)cc2)c1=O` (centres unmarked): “incidence of infections” 7% (healthy human volunteers; oral, 200 mg, compound alone cohort).
`Cl.[2H]C([2H])([2H])CC(=O)c1cnc(NC(=O)C2CC2)cc1Nc1cccc(-c2ncn(C([2H])([2H])[2H])n2)c1OC` has a CL/F of 8.9 L/h (geometric mean; human; 100 mg single dose, fasted, liquid).
`Oc1ccc(/C=C/c2cc(O)cc(O)c2)cc1` has an LDL-C level of 4 mg/dL and 3 mg/dL (rat, azoxymethane-injected, blood; in vivo, 10 mg/kg, at sacrifice).
`C[C@H]1CNCCCN1S(=O)(=O)c1cccc2cncc(F)c12` gave an adverse events of 5.6% (item: Pyrexia; healthy adult men; topical ocular, 1 drop per eye twice daily, 8 days).
For `O=C(O)/C=C/c1ccc(OS(=O)(=O)O)cc1`, CSF concentration read “not detected” (human CSF; concentration not given, mean).
The ED50 of `COc1ccc(-n2nc(C(N)=O)c3c2C(=O)N(c2ccc(N4CCCCC4=O)cc2)CC3)cc1` is reported as 27.1 ± 5.53 mg (human, plasma; oral, Full population PK model).
Under “lymphopenia TEAE incidence”, `COc1ccc([C@@H](O)c2cc(-c3ncnc4cc(N5CCOCC5)ccc34)c(F)cc2Cl)nn1` is recorded as 0% (locally advanced rectal cancer patients; 50 mg, added: capecitabine and radiotherapy).
With `Cc1c(C(=O)O)ccc2c3n(nc12)[C@@H]1[C@H](C3)N(CC2CC2)[C@@]2(C(=O)Nc3cc(Cl)ccc32)[C@H]1c1cccc(Cl)c1F` the plasma concentration was 769 nM and 1130 nM and 725 nM and 534 nM and 450 nM (female BALB/c nude mice, plasma; oral, 2 mg/kg once daily, 24 h, SJSA-1 tumour-bearing).
`COc1ccc(C#N)cc1-c1c[nH]c2ncc(-c3cncc(C(=O)N(C)C)c3)cc12` gave a hydrolytic half-life of > 24 h (HPLC; 50 µM, 37 °C, no lysine, followed to 24 h).
`CN(C(=O)n1cnc(-c2ccc[n+]([O-])c2)c1)[C@H]1CC[C@H](O)CC1` has a tissue concentration of 8.3 ± 0.2 ng/g (rat, cerebellum; oral, 10 mg/kg daily for 5 days, 48 h).
`C=CCN1CC(=O)N2[C@@H](Cc3ccc(O)cc3F)C(=O)N(Cc3cccc(N4CC(N5CCN(CC)CC5)C4)n3)C[C@@H]2N1C(=O)NCc1ccccc1`: “treatment-related adverse events” 13.9% (item: Diarrhea; advanced solid tumour patients; all doses, dose-escalation part, any grade).
`Cc1ccc(Sc2ccccc2N2CCNCC2)c(C)c1` — result for “participants with TEAE”: 0% (item: Nausea; healthy adult men; oral, 20 mg daily, 12 days).

Excerpt of the above:
For `O=C(O)/C=C/c1ccc(OS(=O)(=O)O)cc1`, CSF concentration read “not detected” (human CSF; concentration not given, mean).
`CCOc1c([C@H](C)n2nc(C)c3c(N)ncnc32)cc(Cl)c(F)c1[C@@H]1CNC(=O)C1`: “observations with PR ≤200 ms” 96% (ECG; previously treated B-cell malignancy patients; oral, 20 mg once daily, baseline below thresholds).
`C=CC(=O)NC1CCN(c2ncc3ncnc(Nc4ccc(Oc5ccc6c(c5)ncn6C)c(C)c4)c3n2)CC1` — result for “participants with AE grade ≥3”: 0% (healthy male humans; oral, 240 mg).
`CN(C(=O)n1cnc(-c2cccnc2)c1)[C@H]1CC[C@H](O)CC1` gave a concentration of 16.6 ± 1.3 ng/g (Wistar rat, midbrain; oral, 10 mg/kg/day of BIA 10-2474, 72 h, repeated 5 days).
With `CC(C(=O)NCC(=O)NCC(CNC(=O)CNC(=O)C(C)N1CCN(CC(=O)[O-])CCN(CC(=O)[O-])CCN(CC(=O)[O-])CC1)(CNC(=O)CNC(=O)C(C)N1CCN(CC(=O)[O-])CCN(CC(=O)[O-])CCN(CC(=O)[O-])CC1)CNC(=O)CNC(=O)C(C)N1CCN(CC(=O)[O-])CCN(CC(=O)[O-])CCN(CC(=O)[O-])CC1)N1CCN(CC(=O)[O-])CCN(CC(=O)[O-])CCN(CC(=O)[O-])CC1.[Gd+3].[Gd+3].[Gd+3].[Gd+3]` (centres unmarked) the urinary excretion was 0.01% (ICP-MS; cynomolgus monkey; dose not given, 57 58 d, PK group; relative to: dose).
`C[C@H]1CNCCCN1S(=O)(=O)c1cccc2cncc(F)c12` gave an adverse events of 5.6% (item: Pyrexia; healthy adult men; topical ocular, 1 drop per eye twice daily, 8 days).
Under CSF concentration, `COc1cc(C[C@@H](CO)[C@H](CO)Cc2ccc(O)c(OC)c2)ccc1O` is recorded as “not detected” (human CSF; concentration not given, mean).
